{"data": "Assay results gathered from unrelated publications", "organism": "Plasmodium falciparum", "note": "± marks the error that the study gave."}
{"Compound": "COc1ccc(CCNC2=CC3=[N+](C)CCc4c[nH]c(c43)C2=O)cc1", "test": "parasite growth, SYBR Green", "test system": "DD2", "setting": "blood stage", "IC50": "0.0763 µM"}
{"Compound": "Oc1ccc(-c2ccc(O)c3ccccc23)c2c1C=NCC2", "test": "asexual parasite proliferation, SYBR Green I fluorescence", "test system": "7G8", "IC50": "0.97 ± 0.21 µM"}
{"Compound": "CCNCC#CCNc1ccnc2cc(Cl)ccc12", "test": "parasite growth, SYBR Green", "test system": "3D7", "setting": "blood stage", "IC50": "0.0382 µM"}
{"Compound": "CCN(CC)CCCC(C)Nc1ccnc2cc(Cl)ccc12 (stereo not shown)", "test": "parasite growth, SYBR Green", "test system": "3D7", "setting": "72 h, blood stage", "IC50": "0.0201 µM"}
{"Compound": "Cc1cc(C(c2ccc(Cl)cc2)c2ccc(Cl)cc2)c2nccc(C)c2c1", "test": "parasite growth, inhibitor, SYBR Green I", "test system": "3D7", "IC50": "4.01 µM"}
{"Compound": "O=C(CCCCCONC(=O)c1nc(-c2ccc(Cl)cc2)cs1)NO", "test": "asexual blood-stage growth, [3H]hypoxanthine uptake", "test system": "3D7", "setting": "72 h", "IC50": "0.17 µM"}
{"Compound": "O=C(OCc1cn(-c2cc3ccc(O)cc3oc2=O)nn1)c1ccccc1", "test": "parasite growth", "test system": "3D7", "setting": "72 h, blood stage", "IC50": "> 10 µM"}
{"Compound": "C[N+]1=C2C=C(NCCc3c[nH]c4ccccc34)C(=O)c3[nH]cc(c32)CC1", "test": "parasite growth, SYBR Green", "test system": "DD2", "setting": "blood stage", "IC50": "0.0242 µM"}
{"Compound": "N[C@H]1C[C@@H](C(=O)O)CC1=C(C(F)(F)F)C(F)(F)F", "test": "parasite growth, SYBR Green", "test system": "D6", "setting": "blood stage", "IC50": "> 10 µg/mL"}
{"Compound": "CC1=N[C@H](C)Cc2c(-c3ccc4ccccc4c3)ccc(O)c21", "test": "asexual parasite proliferation, SYBR Green I fluorescence", "test system": "clinical isolate SB_05, Mozambique", "IC50": "0.789 ± 0.0092 µM"}
{"Compound": "O=C1C(NCCc2ccc(O)c(Br)c2)=CC2=NCCc3c[nH]c1c32", "test": "parasite growth, SYBR Green", "test system": "DD2", "setting": "blood stage", "IC50": "0.498 µM"}
{"Compound": "COc1cc(O)c(-c2cc(-c3cc(-c4c(O)cc(OC)c5c4C[C@@H](C)N[C@@H]5C)c4cc(C)cc(OC)c4c3O)c(O)c3c(OC)cc(C)cc23)c2c1[C@@H](C)N[C@H](C)C2", "test": "parasite growth, SYBR Green", "test system": "NF54", "setting": "blood stage", "IC50": "0.0878 µM"}
{"Compound": "O=C(CCCCCONC(=O)c1nc(-c2ccc([N+](=O)[O-])cc2)cs1)NO", "test": "asexual blood-stage growth, [3H]hypoxanthine uptake", "test system": "3D7", "setting": "72 h", "IC50": "0.24 µM"}
{"Compound": "CC1=C(Cn2cc(CN3CCC(=O)CC3)nn2)C(=O)c2ccccc2C1=O", "test": "parasite growth, [3H]hypoxanthine incorporation", "test system": "NF54", "setting": "72 h", "IC50": "> 10 µM"}
{"Compound": "CC(F)(F)CCCNC[C@H](O)c1cc(Cl)cc2c1-c1ccc(Cl)cc1C2", "test system": "3D7", "setting": "48 h", "IC50": "0.0085 ± 0.0016 µM"}
{"Compound": "COc1cncc(-c2cc(F)cc(CNC(=O)c3cc(N4CC[C@@](C#N)(C5CC5)C4=O)cc(C)n3)c2)c1", "test": "parasite growth", "test system": "conditional knockdown control line", "setting": "72 h, with: 12.5 nM anhydrotetracycline", "IC50": "0.32 µM"}
{"Compound": "O[C@H](CNCCNC(c1ccccc1)c1ccccc1)c1cc(Cl)cc2c1-c1ccc(Cl)cc1C2", "test system": "3D7", "setting": "48 h", "IC50": "0.008 ± 0.0003 µM"}
{"Compound": "Cc1cc(N2CC[C@@](C#N)(C3CC3)C2=O)cc(NC(=O)Cc2ccccc2)n1", "test": "parasite growth", "test system": "conditional knockdown control line", "setting": "120 h, with: 12.5 nM anhydrotetracycline", "IC50": "0.052 µM"}
{"Compound": "COc1cc(C)c(-c2ccc3c(c2O)[C@@H](C)N[C@H](C)C3)c2ccc(-c3c(C)c(-c4ccc5c(c4O)[C@@H](C)N[C@H](C)C5)c4cccc(OC)c4c3O)c(O)c12", "test": "asexual parasite proliferation, SYBR Green I fluorescence", "test system": "K1", "IC50": "0.125 ± 0.019 µM"}
{"Compound": "CC1C=CC=CC(C)C2C=CC3CC(C)(O)C(O)C(C)C3C2C(=O)C(Cl)(Cl)C(=O)C(C)C(=O)O1 (stereo not shown)", "test": "parasite growth, ELISA", "test system": "3D7", "setting": "blood stage", "IC50": "> 2.17 µM"}
{"Compound": "COc1cccc2c(-c3ccc4c(c3O)[C@@H](C)N[C@H](C)C4)c(CO)cc(OC)c12", "test": "asexual parasite proliferation, SYBR Green I fluorescence", "test system": "7G8", "IC50": "0.0115 ± 36 µM"}
{"Compound": "Cc1cc(N2CCC(CO)(C3CC3)C2=O)cc(C(=O)NCc2cc(F)cc(-c3cnn(C)c3)c2)n1 (stereo not shown)", "test": "parasite growth", "test system": "cPRS conditional knockdown line", "setting": "72 h, with: 12.5 nM anhydrotetracycline", "IC50": "0.034 µM"}
{"Compound": "O=C(CCCCCONC(=O)c1nc(-c2ccc(Br)cc2)cs1)NO", "test": "asexual blood-stage growth, [3H]hypoxanthine uptake", "test system": "3D7", "setting": "72 h", "IC50": "0.13 µM"}
{"Compound": "COCCN(C)CC(=O)NC(Cc1ccc(-c2ccccc2)cc1)B(O)O (stereo not shown)", "test": "[3H]-hypoxanthine incorporation", "test system": "Dd2, chloroquine-resistant", "IC50": "0.126 ± 0.045 µM"}
{"Compound": "Cc1ccc(S(=O)(=O)n2cc3c4c2C(=O)C(N)=CC4=NCC3)cc1", "test": "parasite growth, SYBR Green", "test system": "DD2", "setting": "blood stage", "IC50": "1.87 µM"}
{"Compound": "COc1cccc2c(-c3ccc(O)c4c3CC(C)(C)N=C4)ccc(OC(C)C)c12", "test": "asexual parasite proliferation, SYBR Green I fluorescence", "test system": "7G8", "IC50": "0.127 ± 0.018 µM"}
{"Compound": "Cc1ccc(S(=O)(=O)n2cc3c4c2C(=O)C(NCCc2ccc(O)cc2)=CC4=NCC3)cc1", "test": "parasite growth, SYBR Green", "test system": "W2", "setting": "blood stage", "IC50": "1.41 µM"}
{"Compound": "COc1cc(C)c(-c2ccc(O)c3c2C[C@@H](C)N[C@@H]3C)c2cccc(O)c12 (single isomer, unassigned)", "test": "asexual parasite proliferation, SYBR Green I fluorescence", "test system": "HB3", "IC50": "0.139 ± 0.0088 µM"}
{"Compound": "COc1ccc2c(c1)C1CC(C)(N2)c2c(C)nc3ccc(OC)cc3c21 (stereo not shown)", "test": "parasite growth, inhibitor, SYBR Green I", "test system": "3D7", "IC50": "0.273 µM"}
{"Compound": "O=C(CCCCCONC(=O)c1nc(-c2ccc(O)cc2)cs1)NO", "test": "asexual blood-stage growth, [3H]hypoxanthine uptake", "test system": "3D7", "setting": "72 h", "IC50": "0.02 µM"}
{"Compound": "O=C1C(=O)c2[nH]cc3c2C(=C1I)NCC3", "test": "parasite growth, SYBR Green", "test system": "DD2", "setting": "blood stage", "IC50": "12.9 µM"}
{"Compound": "COc1ccc(-c2ccc(O)c3c(OC)cccc23)c2c1C=NC(C)(C)C2", "test": "parasite growth, SYBR Green", "test system": "NF54", "setting": "blood stage", "IC50": "12.4 µM"}
{"Compound": "COC1=CC2=NCCc3c[nH]c(c32)C1=O", "test": "parasite growth, SYBR Green", "test system": "DD2", "setting": "blood stage", "IC50": "1.19 µM"}
{"Compound": "CCCCCc1ccc(Cc2cc(/C=C/C(=O)OC)cc3cccnc23)cc1", "test": "parasite growth, inhibitor, SYBR Green I", "test system": "3D7", "IC50": "6.59 µM"}
{"note": "Repeated from above:"}
{"Compound": "COc1cc(C)c(-c2ccc3c(c2O)[C@@H](C)N[C@H](C)C3)c2ccc(-c3c(C)c(-c4ccc5c(c4O)[C@@H](C)N[C@H](C)C5)c4cccc(OC)c4c3O)c(O)c12", "test": "asexual parasite proliferation, SYBR Green I fluorescence", "test system": "K1", "IC50": "0.125 ± 0.019 µM"}
{"Compound": "CC1C=CC=CC(C)C2C=CC3CC(C)(O)C(O)C(C)C3C2C(=O)C(Cl)(Cl)C(=O)C(C)C(=O)O1 (stereo not shown)", "test": "parasite growth, ELISA", "test system": "3D7", "setting": "blood stage", "IC50": "> 2.17 µM"}
{"Compound": "COc1cccc2c(-c3ccc4c(c3O)[C@@H](C)N[C@H](C)C4)c(CO)cc(OC)c12", "test": "asexual parasite proliferation, SYBR Green I fluorescence", "test system": "7G8", "IC50": "0.0115 ± 36 µM"}
{"Compound": "Cc1cc(N2CCC(CO)(C3CC3)C2=O)cc(C(=O)NCc2cc(F)cc(-c3cnn(C)c3)c2)n1 (stereo not shown)", "test": "parasite growth", "test system": "cPRS conditional knockdown line", "setting": "72 h, with: 12.5 nM anhydrotetracycline", "IC50": "0.034 µM"}
{"Compound": "O=C(CCCCCONC(=O)c1nc(-c2ccc(Br)cc2)cs1)NO", "test": "asexual blood-stage growth, [3H]hypoxanthine uptake", "test system": "3D7", "setting": "72 h", "IC50": "0.13 µM"}
